{"data": "Published values gathered from unrelated publications", "note": "Each numbered part is a random draw from the data of one study; scales do not carry over between parts."}
{"data": "Series 1", "target": "PABPC1L2, full length, GST fusion (mouse, UniProt A0ABA7IW68)", "technique": "RNAcompete", "molecule type": "RNA", "medium": "in vitro", "concentration": "20 nM", "setting": "7-mer, probes averaged, single round", "relative to": "mean of 7-mers", "reading": "higher = stronger binding", "Residues (chain)": "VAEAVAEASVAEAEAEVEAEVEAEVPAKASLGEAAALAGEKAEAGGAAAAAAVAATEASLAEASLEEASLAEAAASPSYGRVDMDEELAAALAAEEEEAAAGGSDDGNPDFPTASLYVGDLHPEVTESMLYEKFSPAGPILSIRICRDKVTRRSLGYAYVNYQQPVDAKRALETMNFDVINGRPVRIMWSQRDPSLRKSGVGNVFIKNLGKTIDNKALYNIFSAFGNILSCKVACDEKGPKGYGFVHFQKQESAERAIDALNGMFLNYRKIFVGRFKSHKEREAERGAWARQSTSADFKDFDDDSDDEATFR"}
{"Strand": "UCCCGAU", "7-mer Z-score": -0.306}
{"Strand": "GAGACCC", "7-mer Z-score": -0.0681}
{"Strand": "UCGCCGU", "7-mer Z-score": -0.434}
{"Strand": "GAAGUUG", "7-mer Z-score": -0.112}
{"Strand": "AUACCCG", "7-mer Z-score": -0.211}
{"Strand": "UAAGAUU", "7-mer Z-score": -0.0826}
{"Strand": "GGCGUUG", "7-mer Z-score": 0.131}
{"data": "Series 2", "target": "Histone acetyltransferase KAT6A, both winged helices, GST fusion (KAT6A, Homo sapiens, UniProt Q92794, residues 1-181)", "technique": "protein binding microarray", "molecule type": "double-stranded DNA, one strand shown", "medium": "in vitro", "concentration": "not given", "setting": "8-mer, flanks averaged, mean of 2 arrays, mostly near background", "relative to": "not given", "reading": "higher = stronger binding", "Target sequence (chain)": "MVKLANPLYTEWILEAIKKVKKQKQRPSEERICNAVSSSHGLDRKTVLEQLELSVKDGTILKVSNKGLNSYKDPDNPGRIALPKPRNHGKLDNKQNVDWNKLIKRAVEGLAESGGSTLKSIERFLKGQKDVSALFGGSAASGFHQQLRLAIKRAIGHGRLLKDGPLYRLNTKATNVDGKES"}
{"Strand": "CGCCGCCA", "E-score": 0.314}
{"Strand": "TACACATA", "E-score": -0.099}
{"Strand": "GCCTTGAC", "E-score": -0.0068}
{"Strand": "CCAGACCG", "E-score": 0.0856}
{"Strand": "ACTGACGC", "E-score": 0.134}
{"Strand": "AACAGGCA", "E-score": -0.0132}
{"Strand": "CATGGAGC", "E-score": -0.0492}
{"data": "Series 3", "target": "Centromere-binding protein 1, full length, His-tagged (CBF1, Saccharomyces cerevisiae, UniProt P17106, residues 1-351)", "technique": "competition protein-binding microarray", "molecule type": "double-stranded DNA, one strand shown", "medium": "in vitro", "concentration": "2 µM", "setting": "whole 60-bp probe, lowest competitor level", "together with": "Pho4 competitor, 0.05 µM", "reading": "higher = stronger binding", "all sequences stand within": "… GTCTTGATTCGCTTGACGCTGCTG", "UniProt P17106, sequence (whole entry, looked up)": "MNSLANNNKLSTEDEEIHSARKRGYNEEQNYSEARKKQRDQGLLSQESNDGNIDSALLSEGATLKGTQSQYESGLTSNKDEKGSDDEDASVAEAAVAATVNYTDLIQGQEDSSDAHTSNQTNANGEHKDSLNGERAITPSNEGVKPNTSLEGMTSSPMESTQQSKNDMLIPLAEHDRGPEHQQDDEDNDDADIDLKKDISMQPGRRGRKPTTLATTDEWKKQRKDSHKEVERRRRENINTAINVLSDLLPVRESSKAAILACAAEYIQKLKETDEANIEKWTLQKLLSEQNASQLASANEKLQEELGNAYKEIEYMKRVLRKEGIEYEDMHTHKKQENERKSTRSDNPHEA"}
{"Strand": "AAATTACTAAGTTGTCGGGTGGGTGACGCCGTATGA", "fluorescence intensity [a.u.]": 58.4}
{"Strand": "TGCGCAACAACTTGCCTCGTGGGTGTATGTCTAGAA", "fluorescence intensity [a.u.]": 66.7}
{"Strand": "GGATTACTGTAATTGCTCGTGTTGGATTGAGCGAAA", "fluorescence intensity [a.u.]": 96.9}
{"Strand": "GCGAGAATTTGCACACATGTGACGCTGAATGTATAT", "fluorescence intensity [a.u.]": 1390}
{"Strand": "CTTTCCCGATCTTGAATTGTGGGTGTAGCACATTTG", "fluorescence intensity [a.u.]": 92}
{"Strand": "GTCTTGTCTCATTGTTTGGTGGGTGTCCCCACTTCA", "fluorescence intensity [a.u.]": 85.4}
{"Strand": "ACAGCATTCGACGGAGTCGTGGGTACTTACGAACGG", "fluorescence intensity [a.u.]": 51.9}
{"data": "Mixed results"}
{"Substance": "PhoQ, residues 284 288 289 292 302 303 ASHLAV", "target": "PhoP, residues 12 14 15 18 19 HHYTI (Escherichia coli, UniProt P23836)", "test": "Sort-seq, item: YFP reporter", "system": "E. coli", "setting": "PhoQ-PhoP variant library, together with: 10 µM Mg2+", "scale": "relative to: high Mg2+ state, higher = stronger signaling", "measurement": "fold induction", "result": 0.683}
{"note": "For quick reference, copied from above (series 3):"}
{"Strand": "CTTTCCCGATCTTGAATTGTGGGTGTAGCACATTTG", "fluorescence intensity [a.u.]": 92}
{"Strand": "GTCTTGTCTCATTGTTTGGTGGGTGTCCCCACTTCA", "fluorescence intensity [a.u.]": 85.4}
